Assay results of several laboratories.
Each line is one published result; not all experiments were run side by side. “And” joins repeats or separate records; there may be more than shown. ± marks the error that the study gave. Values after ≈ are worked out from the molar mass of the structure shown.

For `COC1OC(C)C(OS(=O)(=O)O)C(OC2OC(C)C(OS(=O)(=O)O)C(OC3OC(C)C(OS(=O)(=O)O)C(OC4OC(C)C(OS(=O)(=O)O)C(OC5OC(C)C(OS(=O)(=O)O)C(OC6OC(C)C(OS(=O)(=O)O)C(OC7OC(C)C(OS(=O)(=O)O)C(OC8OC(C)C(OS(=O)(=O)O)C(OC9OC(C)C(OS(=O)(=O)O)C(OC%10OC(C)C(OS(=O)(=O)O)C(OS(=O)(=O)O)C%10OS(=O)(=O)O)C9OS(=O)(=O)O)C8OS(=O)(=O)O)C7OS(=O)(=O)O)C6OS(=O)(=O)O)C5OS(=O)(=O)O)C4OS(=O)(=O)O)C3OS(=O)(=O)O)C2OS(=O)(=O)O)C1OS(=O)(=O)O` (centres unmarked), the viability was 103% and 107% (NIH 3T3; CCK-8; concentration not given, 24 h, medium concentration; reference: untreated cells).
The kinetic solubility of `Cc1ncsc1-c1ccc(CNC(=O)[C@@H]2C[C@@H](O)CN2C(=O)[C@@H](NC(=O)CN2CCN(C3CN(CCNC(=O)C[C@@H]4N=C(c5ccc(Cl)cc5)c5c(sc(C)c5C)-n5c(C)nnc54)C3)CC2)C(C)(C)C)cc1` is reported as 203 µM (≈ 211 µg/mL) (Sf9; culture medium).
The IC50 of `COc1ccc2ncc(F)c(CC[C@@]3(O)CO[C@@H]4[C@@H](NCc5ccc(C)cc5)CO[C@@H]43)c2n1` is reported as 38.6 µg/mL (≈ 85.1 µM) (THP-1; cytotoxicity).
The viability of `CC(=O)OC[C@H]1O[C@@H]([Se]SC[C@H]2O[C@@H]3OC(C)(C)O[C@@H]3[C@H]3OC(C)(C)O[C@H]32)[C@H](OC(C)=O)[C@@H](OC(C)=O)[C@@H]1OC(C)=O` is reported as 35.5 ± 4.3% (THP-1 macrophages (PMA-differentiated); WST-1; 25 µM, 24 h).
With `Cc1cc(C)nc(NC(=S)N2CCN(c3ccc(C(F)(F)F)cn3)CC2)c1` the Papp A-B was 10 ± 1 ×10⁻⁶ cm/s (MDCK-MDR1).
`Cc1cccnc1-c1csc(C(=O)Nc2cc(Cl)cc(NS(C)(=O)=O)c2)c1` gave a CC50 of > 10 µM (WI-38; cell growth or viability, ATP luminescence; 10 days).
The CC50 of `CCCCCc1ccc(Cc2cc(/C=C/C(=O)OC)cc3cccnc23)cc1` is reported as > 400 µM (Huh-7; cell growth or viability, MTT).
The CC50 of `Cc1cc(C(=O)Nc2nc3cccc(C)c3n2[C@H]2CCCCN(C(=O)/C=C/CN(C)C)C2)ccn1` is reported as 14.1 µM and 8.02 µM and 6.86 µM (NIH 3T3; cytotoxicity; 4 days).
With `COc1ccc2nccc(CC[C@H]3OC[C@H](NC(=O)c4ccc(Cl)cc4)CO3)c2c1` the IC50 was 15.6 µg/mL (≈ 36.5 µM) (THP-1; cytotoxicity).
For `Cc1cc(C(c2ccc(Cl)cc2)c2ccc(Cl)cc2)c2nccc(C)c2c1`, the CC50 was > 400 µM (Huh-7; cell growth or viability, MTT).
The IC50 of `COc1ccc2ncc(F)c(CC[C@@]3(O)CO[C@@H]4[C@@H](NCc5ccc(Cl)c(Cl)c5)CO[C@@H]43)c2n1` is reported as 22.8 µg/mL (≈ 44.8 µM) (THP-1; cytotoxicity).
For `N#Cc1cccc(-c2ccc(=O)n(Cc3cccc(-c4ncc(OCC5CCN(CC(=O)N6CCN(c7ccc8c(c7)C(=O)N(C7CCC(=O)NC7=O)C8=O)CC6)CC5)cn4)c3)n2)c1` (centres unmarked), the Papp B-A was 0.5 ± 0.05 ×10⁻⁶ cm/s (Caco-2; transwell monolayer; 2 µM, 120 min, pH 7.4, 0.1% DMSO, with: Ko143 10 µM).
For `COc1ccc2ncc(F)c(C(O)C[C@H]3OC[C@H](NCc4ccc5c(c4)OCCO5)CO3)c2c1` (some centres unmarked), the IC50 was 65.4 µg/mL (≈ 139 µM) (THP-1; cytotoxicity).
With `c1cc2nc(c1)-c1cccc(n1)CCCc1ccc(cc1)OCCCCCCOc1ccc(cc1)CCC2` the viability was 87.1% (Caco-2; cell growth or viability, MTT; 25 µM, 48 h).
With `CC(=O)OC[C@H]1O[C@@H]([Se]C(=O)c2ccc([N+](=O)[O-])cc2)[C@H](OC(C)=O)[C@@H](OC(C)=O)[C@@H]1OC(C)=O` the CC50 was > 10 µM (THP-1; cell growth or viability, WST-1; 24 h).
For `COC1OC(C)C(OC2OC(C)C(O)C(OC3OC(C)C(OC4OC(C)C(O)C(OC5OC(C)C(OC6OC(C)C(O)C(OC7OC(C)C(OC8OC(C)C(O)C(OS(=O)(=O)O)C8OS(=O)(=O)O)C(OS(=O)(=O)O)C7OS(=O)(=O)O)C6OS(=O)(=O)O)C(OS(=O)(=O)O)C5OS(=O)(=O)O)C4OS(=O)(=O)O)C(OS(=O)(=O)O)C3OS(=O)(=O)O)C2OS(=O)(=O)O)C(OS(=O)(=O)O)C1OS(=O)(=O)O` (centres unmarked), the viability was 74% and 75.8% and 88.1% (RAW264.7; CCK-8; concentration not given, 24 h, medium concentration; reference: untreated cells).
`O=C1CCC(N2Cc3cc(C(=O)O)c(F)cc3C2=O)C(=O)N1` (centres unmarked) has a minimum viability of 43.1 ± 3.28% (Hep3B; CellTiter-Glo; concentration not given, 72 h).
`COC1OC(C)C(OC2OC(C)C(OS(=O)(=O)O)C(OC3OC(C)C(OC4OC(C)C(OS(=O)(=O)O)C(OC5OC(C)C(OC6OC(C)C(OS(=O)(=O)O)C(OC7OC(C)C(OS(=O)(=O)O)C(OS(=O)(=O)O)C7OS(=O)(=O)O)C6OS(=O)(=O)O)C(OS(=O)(=O)O)C5OS(=O)(=O)O)C4OS(=O)(=O)O)C(OS(=O)(=O)O)C3OS(=O)(=O)O)C2OS(=O)(=O)O)C(OS(=O)(=O)O)C1OS(=O)(=O)O` (centres unmarked) has a viability of 102% and 101% and 98.7% (NIH 3T3; CCK-8; concentration not given, 24 h, low concentration; reference: untreated cells).
`CN(C)C(=O)c1cncc(N2Cc3cn(Cc4ccc(F)cc4)nc3C2)n1` gave an efflux ratio of 3 (MDCK-MDR1; reference: B-A over A-B permeability).
For `CN1CCCNC(=O)c2cccc(c2)C(=O)NCCCN(C)CCCNc2cccc3c2C(=O)c2cccc(c2C3=O)NCCC1`, the viability was 68.2% (NHEK; CCK-8; 0.5 µM, 48 h; reference: untreated).
